Measurements from different studies.
± gives the spread as reported.

Structure (SMILES)	assay	system	conditions	half-life [min]
CN[C@@H]1C[C@H]2O[C@@](C)([C@@H]1OC)n1c3ccccc3c3c4c(c5c6ccccc6n2c5c31)C(=O)N[C@@H]4O		human patients	intravenous infusion, 34 mg/m^2/24 h, 72 h infusion, cycle 1, mean, together with: prednisone	22700
O=c1[nH]c(Cc2ccccn2)nc2c1cnn2C1CCOCC1		healthy male human, plasma	oral, 10 mg, geometric mean	110
Cc1ncc(OC[C@@]2(c3cccc(F)c3)C[C@H]2C(=O)Nc2ccc(F)cn2)c(C)n1		human, plasma	10 mg, mean, together with: fluconazole 200 mg	5970
CC[C@@]1(O)C(=O)OCc2c1cc1n(c2=O)Cc2cc3c(CN(C)C)c(O)ccc3nc2-1		human patients	oral, 2.5 mg daily, 5 days, cycle 1 day 5, geometric mean, alone	273
Oc1ccc2cc3ccc4cccc5ccc(c2c1)c3c45	UPLC-AMS	human, plasma	oral, 250 ng of [14C]-BaP	1820 ± 2950
COc1ccsc1CNCC[C@@]1(c2ccccn2)CCOC2(CCCC2)C1		healthy human, normal renal function, plasma	intravenous, 1 mg single dose, geometric mean	140
CC[C@H](C)[C@H](NC(=O)[C@H](CC(C)C)NC(=O)[C@H](Cc1c[nH]c2ccccc12)NC(=O)[C@H](CCC(N)=O)NC(=O)[C@@H](NC(=O)[C@H](Cc1ccccc1)NC(=O)[C@H](C)NC(=O)[C@H](CCCCNC(=O)COCCOCCNC(=O)COCCOCCNC(=O)CC[C@H](NC(=O)CCCCCCCCCCCCCCCCCCC(=O)O)C(=O)O)NC(=O)[C@H](CCC(N)=O)NC(=O)[C@H](C)NC(=O)[C@@H](NC(=O)[C@H](CCCCN)NC(=O)[C@H](CC(=O)O)NC(=O)[C@H](CC(C)C)NC(=O)C(C)(C)NC(=O)[C@@H](NC(=O)[C@H](CO)NC(=O)[C@H](Cc1ccc(O)cc1)NC(=O)[C@H](CC(=O)O)NC(=O)[C@H](CO)NC(=O)[C@@H](NC(=O)[C@H](Cc1ccccc1)NC(=O)[C@@H](NC(=O)CNC(=O)[C@H](CCC(=O)O)NC(=O)C(C)(C)NC(=O)[C@@H](N)Cc1ccc(O)cc1)[C@@H](C)O)[C@@H](C)O)[C@@H](C)CC)[C@@H](C)CC)C(C)C)C(=O)N[C@@H](C)C(=O)NCC(=O)NCC(=O)N1CCC[C@H]1C(=O)N[C@@H](CO)C(=O)N[C@@H](CO)C(=O)NCC(=O)N[C@@H](C)C(=O)N1CCC[C@H]1C(=O)N1CCC[C@H]1C(=O)N1CCC[C@H]1C(=O)N[C@@H](CO)C(N)=O		human, moderate renal impairment, plasma	subcutaneous, 5 mg single dose, geometric mean	8820
O[C@H]1CCCN[C@@H]1CCCn1cnc2c(Cl)c(Cl)ccc21		healthy human volunteers, plasma	oral, 200 mg, day 1, multiple ascending dose	224
CN(C)C/C=C/C(=O)Nc1cc2c(Nc3ccc(F)c(Cl)c3)ncnc2cc1O[C@H]1CCOC1		human	65 mg	2000
COc1ccc(C[C@@H]2NC(=O)[C@H]([C@@H](C)O)NC(=O)[C@@H]3[C@@H]4CCN3C(=O)[C@@H]3Cc5cn(c6ccc(F)cc56)CCCCCCN(Cc5ccc(cc5)CCNC(=O)[C@]5(C)CCCN5C2=O)C(=O)CCC(=O)N[C@@H](C)C(=O)N[C@H](CNC(=O)CCCCC[N+](C)(C)C)C(=O)N[C@@H](Cc2cccc(c2)CNC(=O)CO4)C(=O)N3)cc1		healthy fasted humans, plasma	oral, 10 mg single dose, geometric mean, together with: Labrasol 1800 mg	2110
Oc1ccc2ccc3c4ccccc4cc4ccc1c2c43	UPLC-AMS	human, plasma	oral, 250 ng of [14C]-BaP	1020 ± 1550
C=C(C)[C@@H]1CCC(C)=C[C@H]1c1c(O)cc(CCCCC)cc1O		human, plasma	arithmetic mean, together with: rifampicin 600 mg once daily	2130

Some of these lines once more:
Structure (SMILES)	assay	system	conditions	half-life [min]
CN[C@@H]1C[C@H]2O[C@@](C)([C@@H]1OC)n1c3ccccc3c3c4c(c5c6ccccc6n2c5c31)C(=O)N[C@@H]4O		human patients	intravenous infusion, 34 mg/m^2/24 h, 72 h infusion, cycle 1, mean, together with: prednisone	22700
